Assay results pooled from the literature.
A part holds a random share of what one study measured.

Study 1
Target: RNA binding protein fox-1 homolog 2, RRM domain, GST-SBP tag (RBFOX2, Homo sapiens, UniProt O43251-10, residues 100-194)
Method: RNA Bind-n-Seq
Form: RNA
Sample: in vitro
Tested at: 365 nM
Notes: natural RNA segment, single round, ends assumed
Baseline: no-protein control
Reading: higher = stronger binding
Constant ends, left off below: GGGAGUUCUACAGUCCGACGAUC … UGGAAUUCUCGGGUGCCAA
Construct (chain): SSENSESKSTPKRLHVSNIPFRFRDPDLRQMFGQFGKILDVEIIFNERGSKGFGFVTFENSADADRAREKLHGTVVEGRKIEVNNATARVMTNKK
Sequence	RBNS enrichment (R)
AAACAAAAAAGGGACUUAUUUUGCAUUCUCAAUGGUGUUUUUAAGGGAAUUAGGCAGAACAGAUUUCUAGGUUGGGUAGGCCACUGCAUUCUCUUUUGUUUGCAAAUUGG	1.35
AGAGUGGCUUCAAAACAUGAGCCUUAUGGGAAGUAGCCUUAAAAAAAGAAUGGGUAUACGCAGUGACUUCCGAUGGAAAUCUCCAAAACAAUAUUCCUAAGUAGCAAUGG	0.358
UGGUUUUGGAAUGCAGGGUCAGCCUUGGAGUAUCUCUGAGCAUUGUGGCCUCAGCCAGGAGCGCACUGGCCAGUCUCCCAGGCCUGGAAGCACUGCAGUGUGCAGAGGCU	1.47
UCACUGUCUGCUUUUCAAUCACUAGUACAGAAUGGGCUGCAUUUUGACAUAGACUGUUAGGCACCAUUGACUUAUAAAGUUUUGUUUAUAGUUGCUCUAUCUCAGAUAAC	0.455
UAGCUUGUGUUAUCAAAUGUUCUAAUGCAUAUUUAUAAGAGAAAAAAGGUUUAAAGUAUUUAUUCCCAUAACCUCUGCUUAUGGACUCUUUAUUACCUCUGGCUCUCCCG	0.428
CUCAUAUAGCCCUCAGUCACUGAGGGAGUCCCCCGCAGGAUUGGAGAGGCACAUUCCCUUGGGACAGAGGCUACAGGUUGGAGCUUUUUUUCCCCUGUCCCCCAACCCCA	0.379
UCAGCCCUCCAUUCCGUCUAGCUGCCUUAGUAAGGAACCUGGGGGUGUGGUUAGUGGAAGACCUGGAGACAAAGGGGACUGUGGCUGGUGUCACCUGGAGAUGCCCUCUA	0.273
AUGGCCCAGGCCAAGAGCUGUCAAAUGAAAAACUUUGUGCUGAAGCAGGUUUUUAGUAUGUAUAUCUUUUUGAUGGUAUGAAGAAUUUAUUUAGGCUUGACUGUUUUAAA	2.03
CUCUUCAGUGGGAGAAAACACUUGUAAGUUGCUAAACGAGUCAAUCCCCUCAUUCAGGAAAACUGACAGAGGAGGGCGUGACUCACCCAAGCAUAUAUAACUAGCUAGAA	0.297
UCAAGAAAACUUUGGAAAGUCAGGAACUAAGCUGCUUGGAAAUCAGUGCCACAAGCAUGACCUUGGUGGACACAGGAAGCCACAGGAAAAUUCUUGACAGUCUGUGUCCC	0.804
UUUCCCUAAACCAGCACCCAUCUGCCUUUUAUUCCCCAAAGAGUUACCUUUCCCAGAUUAGGGGGAUGGUAUGUGGGGAGCAGAUAGCGGAAAUGCUUAGAAAGAUAAGG	0.287
CUAAUGCAGUUUUUCAAAUUCUAGUAUUAUGUGUUGCUUAAGAUCACUACAGAGAUGCUACUGAAGAGAGACGGUAGUACAGCUCUCUUGCAGUACUGCCUGCCGUUGGU	0.299

Study 2
Target: Interferon regulatory factor 5, full length, phosphomimetic (IRF5, Homo sapiens, UniProt Q13568-2, residues 1-514, K96S/S451D/S453D/S456D/S462D)
Method: protein-binding microarray
Form: double-stranded DNA, one strand shown
Sample: in vitro
Tested at: 250 nM
Notes: 60-bp whole probe
Added: salmon DNA 0.4 mg/ml
Baseline: random background probes
Reading: higher = stronger binding
Constant ends, left off below: GCCTAGCAC … GTCTTGATTCGCTTGACGCTGCTG
Sequence	log fluorescence [z-score]
GACTATATCGGGTATCGAGACGTGCTA	2.32
TTAGGGATCCTACTGCTTTAGTGCTAG	-0.329
GGCGGTTTCCTTATCCTGACGTGCTAG	0.489
GACGAACTGAGTTTCAAGACGTGCTAG	0.432
GACGATCTCAGTCTCAAGACGTGCTAG	-0.339
TTAGATTTCAGTTTCGTTTAGTGCTAG	9.16
TTAGATATCGCGTATCGATTAGTGCTA	3.29
TTAGGACAGCTTCTCCTTTAGTGCTAG	-0.456
TCACATTTCCCTTGCCGACTGTGCTAG	0.718
GACGGACTGGGTCTCGTGACGTGCTAG	-0.493
GGGCCAGCAGCCAGGTGGAGGTGCTAG	-0.676
GACGGTATCGGGTTTCGAGACGTGCTA	4.06
GACGAACTGGGTATCGAGACGTGCTAG	0.642
GACAGTATCGGTTTCGGGACGTGCTAG	10.1
GACGGTTTACTTTCCCTGACGTGCTAG	1.25
ACTTAAACTAGAAACTGACTTGTGCTA	0.752
TTAGGACTGGGTACTGGGTTAGTGCTA	-0.448
GTCGGTATCGGTCTCGGGACGTGCTAG	6.71
GACGGTATCTTTATCCTGACGTGCTAG	0.311
GACGATTTCAGTCTCGCGACGTGCTAG	0.985
TTAGGTTTCGACTATCGGTTTGTGCTA	9.08

Study 3
Target: Ras GTPase-activating protein-binding protein 1, full length (G3BP1, Homo sapiens, UniProt Q13283)
UniProt Q13283, sequence (whole entry, looked up): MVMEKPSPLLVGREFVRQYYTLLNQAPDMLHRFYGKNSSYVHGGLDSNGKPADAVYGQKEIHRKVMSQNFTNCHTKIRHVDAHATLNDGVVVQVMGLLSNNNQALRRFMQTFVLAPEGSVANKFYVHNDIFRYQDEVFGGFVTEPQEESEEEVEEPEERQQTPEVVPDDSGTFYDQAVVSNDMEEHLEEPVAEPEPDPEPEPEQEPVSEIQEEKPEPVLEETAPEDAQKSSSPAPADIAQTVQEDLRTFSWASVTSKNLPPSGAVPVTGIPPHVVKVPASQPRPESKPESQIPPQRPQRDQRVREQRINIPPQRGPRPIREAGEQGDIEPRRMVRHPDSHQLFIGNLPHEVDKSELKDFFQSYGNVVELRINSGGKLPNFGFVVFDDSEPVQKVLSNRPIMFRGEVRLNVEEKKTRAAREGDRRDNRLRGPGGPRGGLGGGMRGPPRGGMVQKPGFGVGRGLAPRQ
Method: RNA Bind-n-Seq
Form: RNA
Sample: in vitro
Tested at: 200 nM
Notes: whole 134-nt RNA, ends assumed
Added: 150 mM LiCl
Baseline: input library
Reading: higher = stronger binding
Library: 7-deaza-guanosine replaces G
Constant ends, left off below: GGGAGUUCUACAGUCCGACGAUC … UGGAAUUCUCGGGUGUCAAGG
Sequence	log2 enrichment
UUAGGAAGAGAAGACAAGGUGGCCUCUCAUUAGAAGAAGAGGAAGAGGAGGAUGCCAAUUCAGAAUCUGAGGGAAGCAGUAGUGAGGAGG	-1.38
GGGGGUGACCGCCGGAGCGCGGCGUGAGCCCUCCCCCUUGGGAUCCCGCAGCUGACCAGUCGCGCUGACGGACAGACAGACAGACACCGC	-0.572
UGAAUCCUUCCUUGAUGAUGAAGAGGUAUGUCAACAAGGGUAAUAAUUUGUUUUCUUCUGAUUACUCUCAUAUUUUUAUUAUCUUUUAUU	-1.44
CCUCAAGUCCUGUGCUACACAUCGUAUGUACCGAAUCGGGGAGGGAGGGGAGGAAAGUAUUAUGUUACGCCGUUCGGAUCUGCACUUCCA	-0.204
UGGCCCUGGUGGCAUGCGGGGAGGAAGAGGUGGCCUCAUGGAUCGAGGUGGUCCCGGUGGAAUGUUCAGAGGUGGCCGUGGUGGAGACAG	0.325
CAAGUCCUGUGCUACACAUCGUAUGUACCGAAUCGGGAAAGGGGAAAGGAAAGGGGAAAGUAUUAUGUUACGCCGUUCGGAUCUGCACUU	-0.165
CUGUGCUACACAUCGUAUGUACCGAAUCGUGUGUGUGUGUGUGUGUGUGUGUGUGUGUGUGUAAAGUAUUAUGUUACGCCGUUCGGAUCU	-0.336
CACAGACAACACGCACCCACACAGACACAGAGGGAAGGGGUUGGGAUGGGGACAGGGUGCACACCAGGGCGGGGUAGGACCCCAGCCCCU	-0.484
ACCAUGCAGGUGGGCAUCUUUGGGAAGUGGGGCAAGGGGGGGAUAGGGAGGGGGGUAACACUUUGGGAACAGGUAAACCCAGGUCGUUUC	0.00623
UAGUGAAAUUUCUAAUAUAUAUAUUUUUUUCUUUAGGAGAAGAAACGAAUGCAUCAGAUCAACAGAAUGAACCCCAGUUAGGCCUGAAAG	-2.34
UCCUGUGCUACACAUCGUAUGUACCGAAUCGGGGAAAGGGGUUUUUUUGGGGUUUGGGGAAAGUAUUAUGUUACGCCGUUCGGAUCUGCA	-0.645

Study 4
Molecule: PhoQ, residues 284 288 289 292 302 303 TGYLSA
Method: Sort-seq
Measured: YFP reporter
Sample: E. coli
Notes: PhoQ-PhoP variant library
Added: 10 µM Mg2+
Baseline: high Mg2+ state
Reading: higher = stronger signaling
target	fold induction
PhoP, residues 12 14 15 18 19 LHHYF (Escherichia coli, UniProt P23836)	37
PhoP, residues 12 14 15 18 19 TPWTL (Escherichia coli, UniProt P23836)	14.9
PhoP, residues 12 14 15 18 19 VGHWL (Escherichia coli, UniProt P23836)	4.12

Study 5
Target: Centromere-binding protein 1, full length, N-terminal tag (CBF1, Saccharomyces cerevisiae, UniProt P17106, residues 1-351)
UniProt P17106, sequence (whole entry, looked up): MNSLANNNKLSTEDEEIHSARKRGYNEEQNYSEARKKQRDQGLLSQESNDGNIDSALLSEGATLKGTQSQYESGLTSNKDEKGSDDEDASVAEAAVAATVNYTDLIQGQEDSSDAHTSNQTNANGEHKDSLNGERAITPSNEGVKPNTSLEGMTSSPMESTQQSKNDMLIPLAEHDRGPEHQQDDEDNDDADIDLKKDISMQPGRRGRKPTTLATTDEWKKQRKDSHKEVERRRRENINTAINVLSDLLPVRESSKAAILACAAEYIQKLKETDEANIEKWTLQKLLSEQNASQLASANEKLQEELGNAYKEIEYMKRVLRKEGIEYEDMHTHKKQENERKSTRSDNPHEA
Method: protein-binding microarray
Form: double-stranded DNA, one strand shown
Sample: in vitro
Tested at: 0.8 µM
Notes: whole 60-bp probe, no competitor
Reading: higher = stronger binding
Constant ends, left off below: … GTCTTGATTCGCTTGACGCTGCTG
Sequence	fluorescence intensity
GAAGTCATTTGGAATGATGTCACCGAGATTAGATAG	524 a.u.
GAATCTCGGTTCAATCAGTTGAATAGCGAACCTTAG	516 a.u.
GAACACCAATGCAGTCACATGTTTATGAGAACATAG	3100 a.u.
GAAAACATTTCGTATTTCGTGATAATAGTTTCTTAG	527 a.u.
CTAACTCTTCTATCGCACATGTATGGTTCTTATTTC	616 a.u.
GAATATATAAAAGAACAGGTGACTCCGTTTTCATAG	1880 a.u.
GAATGTCATAATTACCACATGCCCTTTATATGTTAG	765 a.u.
CTATAATGACATTGTCATGATCACTGACTCAAATTC	594 a.u.
GAACTTTTTATTCGTGATGTTGAGTAAGGTACATAG	595 a.u.
TGTACGAAGCTATAACACGTATGTATAGTAGTTAGG	498 a.u.

Study 6
Target: Histone acetyltransferase KAT6A, both winged helices, GST fusion (KAT6A, Homo sapiens, UniProt Q92794, residues 1-181)
Method: protein binding microarray
Form: double-stranded DNA, one strand shown
Sample: in vitro
Tested at: not given
Notes: 8-mer, flanks averaged, mean of 2 arrays, mostly near background
Baseline: not given
Reading: higher = stronger binding
Residues (chain): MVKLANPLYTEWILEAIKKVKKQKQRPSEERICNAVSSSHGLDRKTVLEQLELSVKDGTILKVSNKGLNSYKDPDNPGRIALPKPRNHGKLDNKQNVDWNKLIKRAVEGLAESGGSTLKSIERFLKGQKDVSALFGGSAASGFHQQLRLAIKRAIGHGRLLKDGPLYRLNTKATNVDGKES
Sequence	E-score
ACCTAAGT	-0.13
GTCTAGCA	-0.119
GCCGGTCA	0.138
CAGTTCAC	0.0172
CCTAATGC	-0.0715
GTCTCTTA	-0.0864
GTCCTCCA	-0.0121
ACGGACAT	0.246
CATGCTGG	-0.221
ACGAGTGG	-0.145
CAATATCG	-0.0157
TCCAGGGA	-0.122
ACTGGGGG	-0.202
TCGGCACA	0.0966
GTCGGCCA	0.0821
ATCTTTAC	-0.0165
AGTCGGAT	0.134
CTGGTAAC	-0.0105
ACATTCCT	-0.228
CCGTTCAA	0.125
AGCTCATA	-0.00198
GTCCGCAA	0.225
AAGCGAGT	0.0557
GGAGATCA	-0.0438
GCTGCAGA	-0.114

A few entries again (study 3):
Sequence	log2 enrichment
UAGUGAAAUUUCUAAUAUAUAUAUUUUUUUCUUUAGGAGAAGAAACGAAUGCAUCAGAUCAACAGAAUGAACCCCAGUUAGGCCUGAAAG	-2.34
UUAGGAAGAGAAGACAAGGUGGCCUCUCAUUAGAAGAAGAGGAAGAGGAGGAUGCCAAUUCAGAAUCUGAGGGAAGCAGUAGUGAGGAGG	-1.38
UCCUGUGCUACACAUCGUAUGUACCGAAUCGGGGAAAGGGGUUUUUUUGGGGUUUGGGGAAAGUAUUAUGUUACGCCGUUCGGAUCUGCA	-0.645
CUGUGCUACACAUCGUAUGUACCGAAUCGUGUGUGUGUGUGUGUGUGUGUGUGUGUGUGUGUAAAGUAUUAUGUUACGCCGUUCGGAUCU	-0.336
CAAGUCCUGUGCUACACAUCGUAUGUACCGAAUCGGGAAAGGGGAAAGGAAAGGGGAAAGUAUUAUGUUACGCCGUUCGGAUCUGCACUU	-0.165
CCUCAAGUCCUGUGCUACACAUCGUAUGUACCGAAUCGGGGAGGGAGGGGAGGAAAGUAUUAUGUUACGCCGUUCGGAUCUGCACUUCCA	-0.204
CACAGACAACACGCACCCACACAGACACAGAGGGAAGGGGUUGGGAUGGGGACAGGGUGCACACCAGGGCGGGGUAGGACCCCAGCCCCU	-0.484
